Measured values pooled from the literature.
Parts stem from different laboratories: compare values within a part only. Changes are numbered by the printed parent chain.

Study 1
Target: CCND1, cyclin fold, Cln2 fusion (human)
Technique: yeast growth competition, sequencing
Medium: yeast
Notes: weak parent motif
Baseline: not given
Reading: higher = stronger binding
Starting sequence: ORC1 docking peptide (human); PRARKRLELGNLG; partner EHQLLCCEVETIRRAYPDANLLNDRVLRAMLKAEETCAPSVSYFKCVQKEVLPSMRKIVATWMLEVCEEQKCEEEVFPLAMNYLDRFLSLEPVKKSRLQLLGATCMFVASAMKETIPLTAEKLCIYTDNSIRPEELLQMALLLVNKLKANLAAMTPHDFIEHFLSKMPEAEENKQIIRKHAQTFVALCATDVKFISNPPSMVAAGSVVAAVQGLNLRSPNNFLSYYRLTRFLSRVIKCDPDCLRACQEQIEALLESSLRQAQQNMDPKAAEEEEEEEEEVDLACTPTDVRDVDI
Variant	normalised enrichment score
G13Y	-0.206
G13V	-0.401
R4D	0.524
R4Y	0.22
A3D	0.0319
G10T	-0.611
L12Y	-0.258
L9C	-0.0028
R4E	0.36
E8H	-0.765
G10C	0.0293
E8S	-0.114
G13L	-0.387
R2D	0.208
G10V	-0.329
G10R	-0.376
L12M	0.472
A3I	-0.401
N11G	0.145
E8Y	-0.238
G10P	-0.479
L7C	-0.129
E8K	-0.321
R6W	0.0459
L9F	0.386

Study 2
Target: Histone acetyltransferase KAT6A, both winged helices, GST fusion (KAT6A, Homo sapiens, UniProt Q92794, residues 1-181)
Technique: protein binding microarray
Molecule type: double-stranded DNA, one strand shown
Medium: in vitro
Concentration: not given
Notes: 8-mer, flanks averaged, mean of 2 arrays, mostly near background
Baseline: not given
Reading: higher = stronger binding
Target sequence (chain): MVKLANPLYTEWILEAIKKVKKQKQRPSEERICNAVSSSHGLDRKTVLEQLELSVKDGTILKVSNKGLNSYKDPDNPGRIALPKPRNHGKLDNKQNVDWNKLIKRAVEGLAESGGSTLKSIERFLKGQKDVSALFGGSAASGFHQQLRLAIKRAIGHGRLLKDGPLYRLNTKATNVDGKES
Sequence	E-score
ATTCTCTA	-0.212
TCATTGGA	-0.14
CGGATACC	0.127
CGCTTAAG	0.214
CGGCGACA	0.254
ACCAGACT	-0.254
AAGGACAT	0.0331
CTCACCTC	-0.159
GATCACGC	0.183
ACTTGTAA	-0.0457
ACGTGCAA	-0.141
CCCTTACA	-0.118
CATGATTA	-0.0355
GTTAATTA	0.0398
AGCCCAGG	-0.172
GTATTTCA	-0.0251
CAAAAATA	-0.0855
TAACAAGA	-0.168
CGTCCTTC	-0.0108
GAAGGATA	-0.206
AAGAACAG	-0.0702
ACTACACC	-0.03
GTTAGTTA	0.139

Study 3
Target: Ras GTPase-activating protein-binding protein 1, RRM domain (G3BP1, Homo sapiens, UniProt Q13283)
Chain of UniProt Q13283 (whole entry, looked up): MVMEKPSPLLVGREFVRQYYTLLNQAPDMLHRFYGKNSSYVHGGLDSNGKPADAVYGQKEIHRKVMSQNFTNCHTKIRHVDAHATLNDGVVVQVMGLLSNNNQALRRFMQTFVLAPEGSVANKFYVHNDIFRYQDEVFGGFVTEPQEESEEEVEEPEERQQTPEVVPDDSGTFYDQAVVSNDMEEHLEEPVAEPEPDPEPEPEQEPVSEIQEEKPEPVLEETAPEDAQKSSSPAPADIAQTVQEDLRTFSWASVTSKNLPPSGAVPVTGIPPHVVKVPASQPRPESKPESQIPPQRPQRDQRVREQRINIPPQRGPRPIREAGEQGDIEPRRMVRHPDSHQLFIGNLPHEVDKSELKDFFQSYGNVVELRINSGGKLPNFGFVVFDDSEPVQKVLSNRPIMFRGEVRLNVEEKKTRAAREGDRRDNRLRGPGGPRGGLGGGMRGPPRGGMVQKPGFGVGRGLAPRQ
Technique: RNA Bind-n-Seq
Molecule type: RNA
Medium: in vitro
Concentration: 1 µM
Notes: whole 134-nt RNA, ends assumed
Added: 150 mM KCl
Baseline: input library
Reading: higher = stronger binding
Shared flanks, not repeated: GGGAGUUCUACAGUCCGACGAUC … UGGAAUUCUCGGGUGUCAAGG
Sequence	log2 enrichment
GUCCUGUGCUACACAUCGUAUGUACCGAAUCGGGGUUUGGGGAGGGGUUUUUUUGGGGAAAGUAUUAUGUUACGCCGUUCGGAUCUGCAC	0.839
ACCAUGCAGGUGGGCAUCUUUGGGAAGUGGGGCAAGGGGGGGAUACGGAGGGGGGUAACACUUUGGGAACAGGUGGUCCCAGGUCGUUUC	1
AGUCCUGUGCUACACAUCGUAUGUACCGAAUCGGGGUGGGGAGGGGUUUUUUUGGGGAAAGUAUUAUGUUACGCCGUUCGGAUCUGCACU	0.897
GUCCUGUGCUACACAUCGUAUGUACCGAAUCGGGAAAAAGGGUUUUUUUGGGUUUGGGAAAGUAUUAUGUUACGCCGUUCGGAUCUGCAC	-0.0491
AGUCCUGUGCUACACAUCGUAUGUACCGAAUCGGGGUUUUGGGUUUUGGGGUUUUGGAAAGUAUUAUGUUACGCCGUUCGGAUCUGCACU	-0.209
CAAGUCCUGUGCUACACAUCGUAUGUACCGAAUCGGGAGGGUGGGUUUUUUUGGGAAAGUAUUAUGUUACGCCGUUCGGAUCUGCACUUC	0.668
GGUGAUGGUCAACAAGCCUCAACUGCCUCUGCUACAACUGCCAAGUUCCCCGCGUCCCACCCUCCUCUAGGUGCUCCAAGGGACCACCGG	-0.438
AAGUCCUGUGCUACACAUCGUAUGUACCGAAUCGGGGUUUGGGUUUGGGUUUGGGGAAAGUAUUAUGUUACGCCGUUCGGAUCUGCACUU	0.593
UCCUGUGCUACACAUCGUAUGUACCGAAUCGGGGCCCCCGGGCCCCCGGGCCCCCGGGGAAAGUAUUAUGUUACGCCGUUCGGAUCUGCA	-0.738
UCAAGUCCUGUGCUACACAUCGUAUGUACCGAAUCGGGUUUUUGGGAGGGAGGGAAAGUAUUAUGUUACGCCGUUCGGAUCUGCACUUCC	0.395

Study 4
Target: FOSL1, bZIP domain (human)
Technique: DHFR protein complementation
Medium: yeast
Notes: single substitutions, most at no-binding floor
Baseline: wild-type JUN-FOS pair
Reading: higher = stronger binding
Starting sequence: JUN, bZIP domain (human); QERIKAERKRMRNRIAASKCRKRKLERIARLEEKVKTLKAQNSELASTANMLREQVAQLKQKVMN; partner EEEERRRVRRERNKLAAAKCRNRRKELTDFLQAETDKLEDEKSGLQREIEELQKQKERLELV
Variant	binding fitness
Q55P	-1.52 natural log
A57N	-0.36 natural log
S43I	-0.431 natural log
A49V	-0.495 natural log
Q55I	-0.503 natural log
T48N	-0.807 natural log
S47F	-0.465 natural log
A57T	-0.372 natural log
Q41Y	-1.4 natural log
T37S	-0.406 natural log
E32F	-0.769 natural log
V35D	-1.38 natural log
R53S	-1.16 natural log

Study 5
Target: Interferon regulatory factor 3, full length, phosphomimetic (IRF3, Homo sapiens, UniProt Q14653, residues 1-427, S386D/S396D/S398D/S402D/T404D/S405D)
Technique: protein-binding microarray
Molecule type: double-stranded DNA, one strand shown
Medium: in vitro
Concentration: 2540 nM top
Notes: 60-bp whole probe
Added: salmon DNA 0.4 mg/ml
Baseline: random background probes
Reading: higher = stronger binding
Shared flanks, not repeated: GCCTAGCAC … GTCTTGATTCGCTTGACGCTGCTG
Target sequence (chain): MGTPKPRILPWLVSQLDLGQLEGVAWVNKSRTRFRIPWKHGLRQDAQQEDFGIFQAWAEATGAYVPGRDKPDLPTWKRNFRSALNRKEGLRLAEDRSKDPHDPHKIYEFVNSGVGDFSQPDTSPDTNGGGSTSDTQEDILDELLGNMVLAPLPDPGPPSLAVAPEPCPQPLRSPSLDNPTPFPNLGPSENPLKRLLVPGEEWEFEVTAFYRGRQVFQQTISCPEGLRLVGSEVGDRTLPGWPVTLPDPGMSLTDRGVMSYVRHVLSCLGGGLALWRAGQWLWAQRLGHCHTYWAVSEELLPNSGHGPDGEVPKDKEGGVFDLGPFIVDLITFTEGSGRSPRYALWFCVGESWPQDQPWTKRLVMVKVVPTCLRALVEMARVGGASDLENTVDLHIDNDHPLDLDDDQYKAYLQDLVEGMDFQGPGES
Sequence	fitted relative affinity [z-score]
TAAGATTTCAGTTCCGATTAGTGCTAG	3.8
TTAGGTACCGGGTATCGGTTAGTGCTA	1.13
ATTTACATGCATATAGTATAGTGCTAG	1.13
TTAGGTTTAGGTTCCGGTTAGTGCTAG	2.23
GACGATCTCAGTCTCGACACGTGCTAG	0.708
GACGGACTTGGGACTGGGGACGTGCTA	-0.883
GACGATATCGGGTGTCGAGACGTGCTA	0.0171
GACGAACTGAGGCTCGAGACGTGCTAG	-0.5
TTAGGTTTCGACTATCGGGTAGTGCTA	2.35
TTAGATTTCGGAACTGGATTAGTGCTA	4.15
TGAGGTATCCTTATCCTTTAGTGCTAG	4.95
CACGGTTTCGGTATCGGGACGTGCTAG	7.35
TTCTTTATGCACTCTCTACATGTGCTA	0.874
ACACATCTCACTCTAATCTCGTGCTAG	1.01
TTAGGATTGGACTTTCGGTTAGTGCTA	1.3
TTGGGACTGCTTATCCTTTAGTGCTAG	-0.348
TGAGAACTGAGTATCGATTAGTGCTAG	-0.0312
GACGAACTGAGTCTTGAGACGTGCTAG	-0.379
TTAGGTATCGGTTTTGGTTAGTGCTAG	5.84
GACGAACTGGGAACTGGAGACGTGCTA	-0.0863
GACGATAGCAGTATCGAGACGTGCTAG	-0.148
CCCAGGACCCTGGAACTGGCGTGCTAG	-0.655
AGTCCTGTCCAAGATGAGGAGTGCTAG	0.167

Excerpt of the above (study 3):
Sequence	log2 enrichment
ACCAUGCAGGUGGGCAUCUUUGGGAAGUGGGGCAAGGGGGGGAUACGGAGGGGGGUAACACUUUGGGAACAGGUGGUCCCAGGUCGUUUC	1
AGUCCUGUGCUACACAUCGUAUGUACCGAAUCGGGGUGGGGAGGGGUUUUUUUGGGGAAAGUAUUAUGUUACGCCGUUCGGAUCUGCACU	0.897
GUCCUGUGCUACACAUCGUAUGUACCGAAUCGGGAAAAAGGGUUUUUUUGGGUUUGGGAAAGUAUUAUGUUACGCCGUUCGGAUCUGCAC	-0.0491
AGUCCUGUGCUACACAUCGUAUGUACCGAAUCGGGGUUUUGGGUUUUGGGGUUUUGGAAAGUAUUAUGUUACGCCGUUCGGAUCUGCACU	-0.209
CAAGUCCUGUGCUACACAUCGUAUGUACCGAAUCGGGAGGGUGGGUUUUUUUGGGAAAGUAUUAUGUUACGCCGUUCGGAUCUGCACUUC	0.668
GGUGAUGGUCAACAAGCCUCAACUGCCUCUGCUACAACUGCCAAGUUCCCCGCGUCCCACCCUCCUCUAGGUGCUCCAAGGGACCACCGG	-0.438
AAGUCCUGUGCUACACAUCGUAUGUACCGAAUCGGGGUUUGGGUUUGGGUUUGGGGAAAGUAUUAUGUUACGCCGUUCGGAUCUGCACUU	0.593
UCCUGUGCUACACAUCGUAUGUACCGAAUCGGGGCCCCCGGGCCCCCGGGCCCCCGGGGAAAGUAUUAUGUUACGCCGUUCGGAUCUGCA	-0.738
